# Measurements from different studies.
# Lines come from different studies, so protocols differ. Numbers after ± are the reported error.
SMILES,assay,test system,setting,scale,quantity,value
COCCOCCOCCOCCC(=O)NCc1cc(CNC(=O)CCOCCOCCOCCOC)cc(-c2cc3cc4nc(c(-c5ccc(CCC(=O)O)cc5)c5[nH]c(cc6nc(c(OC)c2[nH]3)CC6(C)C)cc5-c2cc(CNC(=O)CCOCCOCCOCCOC)cc(CNC(=O)CCOCCOCCOCCOC)c2)CC4(C)C)c1,,water with 5% DMF,room temperature,,integrated Qy/B absorption ratio,0.4
CC(C)[C@H](NC(=O)CNC(=O)[C@H](CCC(N)=O)NC(=O)[C@H](C)N)C(=O)O,,"human, both sexes, plasma","intravenous infusion, 90 mg/kg/h, 2 h infusion, geometric mean",,half-life,21 min
CSCOC1C(=O)C2(C)C(OCSC)CC3OCC3(OC(C)=O)C2C(OC(=O)c2ccccc2)C2(O)CC(OC(=O)C(O)C(C=C(C)C)NC(=O)OC(C)(C)C)C(C)=C1C2(C)C (stereo not shown),,"male Sprague-Dawley rat, plasma","intravenous, 2 mg/kg",,Cmax,218 ng/mL
CC(C)(Sc1ccncc1-c1ccc(C#N)c2ccccc12)C(=O)OC1OC(C(=O)O)C(O)C(O)C1O (stereo not shown),,"adult men, plasma","oral, 15 mg verinurad, mild renal impairment",relative to: normal renal function,Cmax increase,29%
[11CH3]Oc1ccc(Cc2ccncc2)nc1-c1cccc([N+](=O)[O-])c1,ultrafiltration,"monkey, plasma",,,fraction unbound,7.8%
COc1cc(F)c(C(C)C)cc1C1=C(CN2C(=O)O[C@H](c3cc(C(F)(F)F)cc(C(F)(F)F)c3)[C@@H]2C)CC(C)(C)CC1,non-compartmental analysis,"healthy male subjects, plasma","oral, 100 mg single dose",,Vd/F per body weight,69.9 L/kg
CC[C@H](C)[C@H](NC(=O)[C@H](Cc1ccccc1)NC(=O)[C@H](CCCN)NC(=O)[C@H](CCCNC(=N)N)NC(=O)[C@H](Cc1ccccc1)NC(=O)[C@H](Cc1ccccc1)NC(=O)[C@H](CCCCN)NC(=O)[C@H](CO)NC(=O)[C@H](CC(C)C)NC(=O)[C@H](CCCNC(=N)N)NC(=O)[C@H](CCSC)NC(=O)[C@H](C)N)C(=O)N[C@@H](CC(C)C)C(=O)N[C@@H](CCCCN)C(=O)N[C@@H](CCCNC(=N)N)C(=O)N[C@@H](CCCCN)C(=O)N[C@@H](CCCCN)C(=O)O,circular dichroism,20% TFE in PBS,"200 µM, pH 7.4, 25 °C",,helicity,14.4%
Oc1ccc2ccccc2c1/N=N/c1ccccc1,,rat whole blood QC samples,"16.0 µg/L, 12 h, room temperature, short-term stability",,measured concentration,16.2 µg/L
[11CH3]c1ccc2nc(C3CCC3)n(-c3ccc4[nH]ncc4c3)c2n1,extrapolated from mouse biodistribution,"human male, red marrow",,,absorbed dose,2.3 µSv/MBq
C=C(c1cc(F)c(C(=O)O)c(F)c1)c1cc2c(cc1C)C(C)(C)CCC2(C)C,,"Sprague-Dawley rat, male","oral, 100 mg/kg, 2 h, sesame oil vehicle",,blood cholesterol,78 ± 6.2 mg/dL
CNC(=S)N/N=C/c1ccccn1,cyclic voltammetry,anhydrous DMF,"Cu2+ complex, glassy carbon electrode",,peak potential separation,0.13 mV
CCCCCCCCCCCC(=O)O[C@@H](C(=O)O[C@H]1C[C@@]2(O)[C@@H](OC(=O)c3ccccc3)[C@@H]3[C@]4(OC(C)=O)CO[C@@H]4C[C@H](O)[C@@]3(C)C(=O)[C@H](O)C(=C1C)C2(C)C)[C@@H](NC(=O)OC(C)(C)C)c1ccccc1,,fresh mouse plasma,"10 µg/mL, 37 °C",,disappearance time,8 h
CC(C)(O)c1ccc(N2Cc3c(ccnc3-c3ccc(F)cc3OCC(F)(F)F)C2=O)cc1,,"male C57BL/6 mouse, brain","oral, 10 mg/kg, single dose",,MRT,438 min
CC[C@H](C)[C@H](NC(=O)[C@H](Cc1ccccc1)NC(=O)[C@H](CC(=O)O)NC(=O)[C@H](CCCCN)NC(=O)[C@H](Cc1ccccc1)NC(=O)[C@H](Cc1ccccc1)NC(=O)[C@H](CCCCN)NC(=O)[C@H](CN)NC(=O)[C@H](CC(C)C)NC(=O)[C@H](CCCNC(=N)N)NC(=O)[C@H](CCSC)NC(=O)[C@H](C)N)C(=O)N[C@@H](CC(C)C)C(=O)N[C@@H](CCC(N)=O)C(=O)N[C@@H](CCCNC(=N)N)C(=O)N[C@@H](CCCCN)C(=O)N[C@@H](CCCCN)C(=O)O,circular dichroism,20% TFE in PBS,"200 µM, pH 7.4, 25 °C",,helicity,18.4%
CCC/C(=C\C1=C(C(F)(F)F)C(=O)c2ccccc2C1=O)C(=O)N(CC)CC,metabolic stability,"human, liver microsomes","1 µM, pH 7.4",,scaled CLint,36.3 mL/min/kg
N=C(N)NCCC[C@@H]1NC(=O)[C@H](Cc2c[nH]c3ccccc23)NC(=O)[C@@H](CC2CCCCC2)NC(=O)[C@@H]2CCCN2C(=O)[C@@H](NC(=O)CCc2ccccc2)CCCNC1=O,,"C57BL/6J mice, spinal cord","oral, 1 mg/kg",,elimination half-life,46 min
CC(=O)N[C@H](C)c1cc(Cl)ccc1Cn1c(=S)[nH]c(=O)c2[nH]ccc21,,"dog, both sexes, plasma","oral, 100 mg/kg/day",relative to: dog over human 5 mg,exposure ratio,0.7
CC(=O)N[C@H](CCNC(=O)c1cc(NC(=O)c2cc(NC(=O)c3cc(NC(=O)c4nccn4C)cn3C)cn2C)cn1C)C(=O)Nc1cn(C)c(C(=O)Nc2cc(C(=O)Nc3cc(C(=O)Nc4cc(C(=O)NCCCN(C)CCCN[14C](=O)c5cccc([14C](=O)O)c5)n(C)c4)n(C)c3)n(C)c2)n1,,"BALB/c male mice, prostate","intraperitoneal, 15 nmol per animal, 24 h",,tissue concentration,< 0.1 mg/kg
NC(=O)CCCn1c2ccc([N+](=O)[O-])cc2c(=O)n1Cc1ccccc1,resazurin,"peritoneal macrophages, BALB/c mice","48 h, 10% FBS",,CC50,8.3 ± 3.6 µM
CCCC[C@H](NC(C)=O)C(=O)N[C@H]1CC(=O)NCCCC[C@@H](C(=O)N[C@@H](C(=O)N2CCC[C@@H]2C(N)=O)C(C)C)NC(=O)[C@H](Cc2c[nH]c3ccccc23)NC(=O)[C@H](CCCN=C(N)N)NC(=O)[C@@H](Cc2ccc3ccccc3c2)NC(=O)[C@@H]2CCCN2C1=O,,"healthy dogs, plasma","subcutaneous, 2.25 mg/kg per day, day 5, 24 h post-dose, median",,plasma histamine,16.1 ng/mL
CCCC(CCC)NC(=O)c1ccc(O)c(O)c1,,"female Sprague-Dawley rat, plasma","oral, 50 mg/kg of parent drug",,Tmax,18.6 min
Cc1cn(-c2ccc(-c3cc(C)c(N[C@@H](C)c4ccc(F)cc4)nn3)nc2O[11CH3])cn1,,"rhesus macaque, male, arterial plasma","intravenous, 2 mCi, 30 min",,parent compound in plasma,> 70%
CC(C)[C@H](NC(=O)[C@@H]1CCCN1C(=O)[C@H](CCCNC(=N)N)NC(=O)[C@H](CS)NC(=O)[C@H](Cc1c[nH]c2ccccc12)NC(=O)[C@H](CCCNC(=N)N)NC(=O)[C@@H](Cc1ccccc1)NC(=O)[C@H](Cc1c[nH]cn1)NC(=O)[C@H](CCC(=O)O)NC(=O)[C@H](CS)NC(=O)[C@H](CS)NC(=O)[C@@H]1CC(=O)N[C@@H](CCCNC(=N)N)C(=O)NCC(=O)N[C@@H](CC(=O)O)C(=O)N[C@H](Cc2ccc(O)cc2)C(=O)N1)C(N)=O [technetium-99m labelled],,"C57 mouse, female, B16/F1 melanoma, brain","intravenous, 0.037 MBq, 0.5 h",,tissue uptake,0.21 ± 0.1 %ID/g
C[Si](C)(C)C[C@H](CN)CC(=O)O,,"male Sprague-Dawley rat, plasma","oral, 30 mg/kg, 1 h, single dose",,concentration,~100 µM
COc1ccc(/C=C/C2=[N+]3C(=C(COC(C)=O)c4c(C)cc(/C=C/c5ccc(OC)cc5)n4[B-]3(F)F)C(C)=C2)cc1,,DMSO/methanol 1:1,"1 h, with: 645 nm light, 9.00 J/cm2",,photostability,unstable
CC(C)(O)c1ncc([S@](N)(=O)=NC(=O)Nc2c3c(cc4c2CCC4)CCC3)s1,,"healthy human subjects, all study parts","oral, dose not given",,subjects with gastrointestinal disorders,28%
CCC1(CC)C[C@@H](NC(=O)Nc2cccc3c(C)nccc23)c2cc(F)ccc2O1,,"rat, resiniferatoxin-desensitized","intraperitoneal, 3 mg/kg, ambient 27 °C",,body temperature,decreased
Cn1c(=O)oc2ccc(-c3ccc(CC(C#N)NC(=O)C4CNCCCO4)c(F)c3)cc21 (stereo not shown),measured: glucose urine present,human,"60 mg single dose, fasted",,subjects with TEAE,0%
